Assay results from different studies.
Target: Protein kinase C alpha type (PRKCA, Homo sapiens, UniProt P17252)

Compound = COc1cc(-c2cncc3c2CN(C)Cc2cc(N4CCNCC4)ccc2-3)cc(OC)c1OC; test = kinase activity; setting = 1 µM, human enzyme, together with: ATP 10 µM; how to read = relative to: DMSO control; endpoint = remaining activity; value = 88%
Compound = c1cnc2ccc(Nc3nc(NC4CC4)c4nc[nH]c4n3)cc2c1; test = kinase activity, inhibitor, SelectScreen kinase profiling; setting = 1 µM; how to read = relative to: control; endpoint = remaining activity; value = 84%
Compound = C=CC(=O)N1CCC[C@@H](n2nc(-c3ccc(Oc4ccccc4)cc3)c3c(N)ncnc32)C1; setting = 1 µM; endpoint = remaining activity; value = 30.1%
Compound = COc1cc(F)ccc1-c1ncnc(Nc2cccc(C[S@](C)(=N)=O)c2)n1; test = kinase activity; setting = 10 µM, together with: 10 µM ATP; endpoint = remaining activity; value = 69%
Compound = CNc1cccc2cc(C(=O)Nc3ccc(C(=O)O)cc3)c(=O)[nH]c12; test = kinase activity, inhibitor; setting = 10 µM; endpoint = inhibition; value = 0.66%
Compound = O=C1NC(=O)/C(=C/c2ccc(-c3ccc(F)cc3O)o2)S1; test = enzyme activity; setting = 10 µM; endpoint = remaining activity; value = 102%
Compound = Cc1cc(Nc2cc(N3CCN(C)CC3)nc(Sc3ccc(NC(=O)C4CC4)cc3)n2)[nH]n1; test = kinase activity, KinaseProfiler; setting = 0.03 µM, species human; how to read = relative to: control; endpoint = remaining activity; value = 84%
Compound = CNc1ncc2c(/C=C/C(=O)N3CCC(OC)CC3)nn(Cc3cccc(C(F)(F)F)c3)c2n1; test = kinase activity, inhibitor; setting = 1 µM; how to read = relative to: untreated control; endpoint = remaining activity; value = 98%

Some of these lines once more:
Compound = COc1cc(-c2cncc3c2CN(C)Cc2cc(N4CCNCC4)ccc2-3)cc(OC)c1OC; test = kinase activity; setting = 1 µM, human enzyme, together with: ATP 10 µM; how to read = relative to: DMSO control; endpoint = remaining activity; value = 88%
